Measurements of several laboratories.
Every numbered part comes from another study and shows a few of its results, in no order.

Block 1
Target: Centromere-binding protein 1, full length, His-tagged (CBF1, Saccharomyces cerevisiae, UniProt P17106, residues 1-351)
Sequence of UniProt P17106 (whole entry, looked up): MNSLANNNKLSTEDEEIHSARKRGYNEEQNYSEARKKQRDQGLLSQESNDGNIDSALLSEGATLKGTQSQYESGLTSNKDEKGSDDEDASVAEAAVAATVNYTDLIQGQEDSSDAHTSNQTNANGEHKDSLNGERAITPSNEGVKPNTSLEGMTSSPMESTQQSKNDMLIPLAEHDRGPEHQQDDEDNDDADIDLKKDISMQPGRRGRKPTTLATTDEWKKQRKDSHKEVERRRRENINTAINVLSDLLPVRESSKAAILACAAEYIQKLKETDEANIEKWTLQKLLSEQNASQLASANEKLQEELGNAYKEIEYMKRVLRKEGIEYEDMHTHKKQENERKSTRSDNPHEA
Method: competition protein-binding microarray
Molecule type: double-stranded DNA, one strand shown
Matrix: in vitro
Tested at: 2 µM
Notes: whole 60-bp probe, lowest competitor level
With: Pho4 competitor, 0.05 µM
Direction: higher = stronger binding
Measurement: fluorescence intensity
GTATTCTCGGATCGGCACGCAAGCGCAATGCTGAGAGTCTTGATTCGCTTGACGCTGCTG: 64.2 a.u.
CAAAAACAGCCTCCTCACGTGCCAGCATCTGTCTTGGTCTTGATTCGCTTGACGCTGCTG: 839 a.u.
ATAAAAACACTGCGCAGCGTGCTTTTTCGGGTTCCAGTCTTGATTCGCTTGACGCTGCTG: 87.8 a.u.
CTTTCCCGATCTTTTCACGTGGCATTAGCACATTTGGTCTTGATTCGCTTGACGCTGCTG: 742 a.u.
GTCTTGTCTCATTGTACAGTGGGTGTCCCCACTTCAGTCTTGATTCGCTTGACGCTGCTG: 75.8 a.u.
ATAGAAGTTTTTTTATCCTCTCTTTGTTTCCATTATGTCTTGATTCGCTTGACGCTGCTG: 89.6 a.u.
CTAACGAAGGTTTTTCACGTGAGTTACAAGCCAAGTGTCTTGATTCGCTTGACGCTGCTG: 860 a.u.
TGGACATTTAAAGTAACAGTTAATTGAGAATACGGTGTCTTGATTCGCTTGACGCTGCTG: 89.3 a.u.
CAGAGAACCGGTAGCCACATGCAAACTAAAACTTTCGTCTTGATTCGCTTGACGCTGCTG: 103 a.u.
CGTCCTAGTGATTTTCACGTGTGGTCCATGAGGAAGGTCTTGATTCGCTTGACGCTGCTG: 627 a.u.
AACCTACATCTTCACATCGTGGCCGAATTGAAGCTAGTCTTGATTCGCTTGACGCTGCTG: 62.4 a.u.
CTAACGAAGGTTTGGTGCGTGGGTGACAAGCCAAGTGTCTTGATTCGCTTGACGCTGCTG: 70.1 a.u.
AATTACTGGTTCACACTCGTGGGTACCAAACGATTCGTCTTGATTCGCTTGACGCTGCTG: 87.9 a.u.
TTCAGAAGGTGGAGACACATGAAATTGACAGGTCTTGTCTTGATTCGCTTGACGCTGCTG: 84.5 a.u.
GCTGAAAAGCGCGTTCTCGTGCGATGCTTTCAGTGTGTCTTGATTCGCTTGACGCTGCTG: 71.9 a.u.
TGAGCGCTGAAGAAACACATGACGACTTGAAAAAAGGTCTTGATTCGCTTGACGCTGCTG: 406 a.u.
TTTCTTTTCCACTATTACGTGGTGATTCCAGTAGCGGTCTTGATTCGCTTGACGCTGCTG: 88.5 a.u.
CTAACGAAGGTTTGGATTGTGGGTGACAAGCCAAGTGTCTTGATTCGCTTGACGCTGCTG: 78.7 a.u.
CTTTCCCGATCTTGATCCGTGGGTGTAGCACATTTGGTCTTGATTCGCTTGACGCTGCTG: 64.6 a.u.
CATACCCAACCTTTTCACGTGGCATAAGATATTTGTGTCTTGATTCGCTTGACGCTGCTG: 916 a.u.
TCGGAAATTACATGGTGCGTGCTGTGGCTTTTTGTGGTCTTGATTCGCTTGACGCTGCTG: 84 a.u.
AGTTGGTACCTTTTCACCGTGAGTATCGAACTTGAAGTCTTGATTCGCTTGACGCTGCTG: 78 a.u.
CGTCCTAGTGATTGTCACCCAACTTCCATGAGGAAGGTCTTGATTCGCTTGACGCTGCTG: 91.1 a.u.
CTAACGAAGGTTTGCAGAGTGGGTGACAAGCCAAGTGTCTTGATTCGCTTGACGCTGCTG: 66.6 a.u.
GTCTTGTCTCATTGTCACGGGACTTTCCCCACTTCAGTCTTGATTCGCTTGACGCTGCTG: 1130 a.u.

Block 2
Target: Ras GTPase-activating protein-binding protein 1, full length (G3BP1, Homo sapiens, UniProt Q13283)
Sequence of UniProt Q13283 (whole entry, looked up): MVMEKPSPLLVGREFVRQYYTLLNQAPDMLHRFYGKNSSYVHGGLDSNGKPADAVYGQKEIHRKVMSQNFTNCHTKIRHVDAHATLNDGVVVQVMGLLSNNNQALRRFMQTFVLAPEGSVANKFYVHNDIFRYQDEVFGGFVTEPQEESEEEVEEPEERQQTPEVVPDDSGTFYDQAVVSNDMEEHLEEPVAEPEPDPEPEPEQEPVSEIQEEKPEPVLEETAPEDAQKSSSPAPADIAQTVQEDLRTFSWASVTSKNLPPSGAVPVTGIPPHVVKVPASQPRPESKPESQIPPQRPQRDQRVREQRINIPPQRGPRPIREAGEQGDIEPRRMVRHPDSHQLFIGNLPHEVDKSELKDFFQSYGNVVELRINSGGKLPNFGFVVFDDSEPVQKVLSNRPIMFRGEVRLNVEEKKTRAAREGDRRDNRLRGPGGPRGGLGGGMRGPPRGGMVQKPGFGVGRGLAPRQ
Method: RNA Bind-n-Seq
Molecule type: RNA
Matrix: in vitro
Tested at: 200 nM
Notes: whole 134-nt RNA, ends assumed
With: 150 mM LiCl
Reference: input library
Direction: higher = stronger binding
Measurement: log2 enrichment
Each molecule: 7-deaza-guanosine replaces G
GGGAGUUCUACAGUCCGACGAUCCCUGUGCUACACAUCGUAUGUACCGAAUCGGGGAAAAAAAGGGAAAAAAAGGAAAAAAAGGAAAGUAUUAUGUUACGCCGUUCGGAUCUGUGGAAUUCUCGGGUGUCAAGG: 0.329
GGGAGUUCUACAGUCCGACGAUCAGUGACCAUUUUAGUUAAAUUUUGUUCCUCUUCCCCCUUUUCACUUUCCUGGAAGAUCGAUGUCCCGAUCAGGAAGGUAGAGAGUUUUCCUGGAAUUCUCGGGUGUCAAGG: 0.774
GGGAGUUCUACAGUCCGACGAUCCCUCAAGUCCUGUGCUACACAUCGUAUGUACCGAAUCGGGCGGGCGGGCGGGGAAAGUAUUAUGUUACGCCGUUCGGAUCUGCACUUCCAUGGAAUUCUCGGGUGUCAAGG: -1.48
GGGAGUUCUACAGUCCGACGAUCUCCUGUGCUACACAUCGUAUGUACCGAAUCAAACCCCCCCAAAUUUAAAUUUUUUUAAAAAAGUAUUAUGUUACGCCGUUCGGAUCUGCAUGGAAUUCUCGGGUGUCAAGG: 1.48
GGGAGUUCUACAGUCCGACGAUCUAACUUUAGAGGAGGAUCUGAUGGAUAUGGCAGUGGACGUGGAUUUGGGGAUGGCUAUAAUGGGCAUGGAGGAGGACCUGGAGGUGGCAAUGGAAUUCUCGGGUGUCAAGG: 0.051
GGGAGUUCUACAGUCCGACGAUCCUCAAGUCCUGUGCUACACAUCGUAUGUACCGAAUCGGGGAGGGAGGGGAGGGGAAAGUAUUAUGUUACGCCGUUCGGAUCUGCACUUCCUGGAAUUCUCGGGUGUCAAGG: -0.176
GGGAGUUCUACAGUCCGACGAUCGUAGGAAGUAAAAACAAAUGGAAAUGCUUCGGAUAGUGGCAGGGGUGGGGGUUGCUAAGGAAAGGGUGGGAUGGGAGUGGGUAAAGAGUUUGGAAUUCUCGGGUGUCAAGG: 0.239
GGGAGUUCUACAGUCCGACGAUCUGGGAGGUGGAUUUUGUUUAUUUUUUUAGCUCAUUUCCAGGGGUGGGAAUUUUUUUUUAAUAUGUGUCAUGAAUAAAGUUGUUUUUGCAAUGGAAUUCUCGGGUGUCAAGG: 0.32
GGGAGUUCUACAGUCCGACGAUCUCAAGUCCUGUGCUACACAUCGUAUGUACCGAAUCGGGCCGGGGCCGGGCCGGGGAAAGUAUUAUGUUACGCCGUUCGGAUCUGCACUUCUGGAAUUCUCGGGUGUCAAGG: 0.5
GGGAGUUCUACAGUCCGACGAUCCCUGUGCUACACAUCGUAUGUACCGAAUCGGGUUUUUUGGGUUUUUUGGGGUUUUUUGGGGAAAGUAUUAUGUUACGCCGUUCGGAUCUGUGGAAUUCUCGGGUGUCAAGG: 0.297
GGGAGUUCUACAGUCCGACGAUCUGGGAGGUGGAUUUUGUUUAUUUUUUUAGCUCAAUUCCAGGGGUGGGAAUUUUUUUUUAAUAUGUGUCAUGAAUAAAGUUGUUUUUGAAAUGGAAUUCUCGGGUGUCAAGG: 0.234

Block 3
Target: Interferon regulatory factor 7, full length, phosphomimetic (IRF7, Homo sapiens, UniProt Q92985, residues 1-503, S471D/S472D/S475D/S476D/S477D/S483D/S484D/S487D)
Method: protein-binding microarray
Molecule type: double-stranded DNA, one strand shown
Matrix: in vitro
Tested at: 2200 nM top
Notes: 60-bp whole probe
With: salmon DNA 0.4 mg/ml
Reference: random background probes
Direction: higher = stronger binding
Measurement: fitted relative affinity
All sequences stand within: GCCTAGCAC … GTCTTGATTCGCTTGACGCTGCTG
Target sequence (chain): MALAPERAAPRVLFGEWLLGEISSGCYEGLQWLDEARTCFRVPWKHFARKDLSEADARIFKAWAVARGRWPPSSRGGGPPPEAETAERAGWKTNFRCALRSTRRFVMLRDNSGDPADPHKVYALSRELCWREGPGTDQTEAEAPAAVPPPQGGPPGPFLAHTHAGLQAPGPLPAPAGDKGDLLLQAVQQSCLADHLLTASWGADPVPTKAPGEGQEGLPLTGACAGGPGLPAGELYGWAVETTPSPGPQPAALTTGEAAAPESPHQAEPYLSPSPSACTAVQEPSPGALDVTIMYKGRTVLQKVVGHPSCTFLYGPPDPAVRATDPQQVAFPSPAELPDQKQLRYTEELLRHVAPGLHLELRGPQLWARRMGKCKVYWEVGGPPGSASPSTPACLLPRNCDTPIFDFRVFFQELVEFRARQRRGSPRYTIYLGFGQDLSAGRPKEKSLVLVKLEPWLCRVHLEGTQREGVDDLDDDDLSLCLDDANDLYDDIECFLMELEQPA
TCAACTTTCAGTTCTCCACTGTGCTAG: 7.34 z-score
TTAGGTTTCGTGACTGGGTTAGTGCTA: 1.95 z-score
GACGATAGCGGGTATCGAGACGTGCTA: -0.307 z-score
GACGATATCAGTTTCGAGACGTGCTAG: 3.76 z-score
GACGGAATGGGTCTCGGGACGTGCTAG: -0.438 z-score
TTACGACTGGGTCTCGGTTAGTGCTAG: 0.825 z-score
GACGATCTCACTATCGAGACGTGCTAG: 0.67 z-score
GACGGTTCCGGTTTCGGTACGTGCTAG: 6.63 z-score
TCATCTCTTGTTCTCTCACTGTGCTAG: 2.12 z-score
TCAGGTTTCCTTTTCCTTTAGTGCTAG: 7.34 z-score
TCAGATTTCAGACTGGATTAGTGCTAG: 0.364 z-score
GACGAGATCGGGACTGGAGACGTGCTA: -0.397 z-score
GATGATATCGGGACTGGAGACGTGCTA: -0.362 z-score
TTAGTTATCGGGTATCGATTAGTGCTA: 1.04 z-score
GACGGTAACCTACTGCTGACGTGCTAG: 0.227 z-score
TCACATCTCCAAAGTCAGACTGTGCTA: 1.15 z-score
TCAGATATCAGTATCGATTAGTGCTAG: 0.464 z-score
GACGGTCTCCTATTCCTGACGTGCTAG: 1.28 z-score
GACGGTTTCGATACTGGGGACGTGCTA: 4.73 z-score
TCAAGTCTGAGATCCAGACTGTGCTAG: -0.0382 z-score

Block 4
Target: RNA binding protein fox-1 homolog 2, RRM domain, GST-SBP tag (RBFOX2, Homo sapiens, UniProt O43251-10, residues 100-194)
Method: RNA Bind-n-Seq
Molecule type: RNA
Matrix: in vitro
Tested at: 365 nM
Notes: natural RNA segment, single round, ends assumed
Reference: no-protein control
Direction: higher = stronger binding
Measurement: RBNS enrichment (R)
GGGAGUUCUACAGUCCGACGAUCUGAGCUGCUUCUGGGUCUCACGGACCUCCUUGCAGCCCCCUUGCCCUUUCCUUGCCUUGUGUCCGGAACCUUCACACCUUUACCCCUGCGCUAGCCCCUGGCUGAGAGGAUGGAAUUCUCGGGUGCCAA: 0.571
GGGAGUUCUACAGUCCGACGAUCAAAACCUCUCCUCACACUUGGUAUGGAGACUCGACUGAAAAUGAGUUGAGUUUGGUCCUCUCCUUUUCCAAACACUCAGAACACAAAAGUGGAAUCUUCUCCCUACAUAAUGGAAUUCUCGGGUGCCAA: 0.401
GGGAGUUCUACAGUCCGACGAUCUGCCUGAGGUACUUUUUAAGGAGGUAGUGUACAUGGGACCUUUUUGAAGUAGACUGGAUAAGGGCCAGUAGCGACUUGCGACUAGACUUUAAACUUUGCUCUUUCAGGUGUGGAAUUCUCGGGUGCCAA: 1.04
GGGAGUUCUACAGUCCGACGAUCUUUUCUUCUUUAAAAUUGGGGACCUAUAACAUCAUCGCUGUUGCGGAAUCCACUUAGGCAUGUGUCCCCUGAUGGAUGAAUACAUGGGAAUGGUGGAUACUGUCUUCUGAUGGAAUUCUCGGGUGCCAA: 0.499
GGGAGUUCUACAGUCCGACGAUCCUCCUCUGUAGUCAUCUUAUUUGGAUCAGGGAGAAGCAUGAACAAAAAUAUGUUCCAGAACCAUGUGCAAGCUCUGUAAGUCACUGCCCGUGUCUGGAUGAAGGGCUUUCUGGAAUUCUCGGGUGCCAA: 3.19
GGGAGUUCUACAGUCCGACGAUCGAUAAUGGCUUUUUGAAAUUGAGGGGGAAAAAUUGGAGCAUCUGUAAACAGAAAUGCCAAAUUAUUGAUAGUCAUCGUUGCUGCUUCACAUUAGUAUGAGACUGAUGCAGUGGAAUUCUCGGGUGCCAA: 2.42
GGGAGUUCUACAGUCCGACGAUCAUACAGUUCUCUUUUAAACAUCAAACCAUAAAAAGUGUAUUUUGUAAUUUUACUCUGACCUGCCGCAGUCACCUCUCACUUAUCUCUUCCACGUACUGCACGGUCGUAUUUGGAAUUCUCGGGUGCCAA: 4.01
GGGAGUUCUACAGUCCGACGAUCAUGUAAAAAUUGAUAUAGUUGUGAUACAGAGUAUAUUUCCCUUCAGAUAACAUACCACAACACAAUGGAUAAUGUAUUUUAGAUAUAUUCUCUAAUAAAAUUGAGAACUCUGGAAUUCUCGGGUGCCAA: 0.417
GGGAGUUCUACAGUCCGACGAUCAGAGCCACCAGCACUUCAGAGCCAGCCCUCAGCCCGGGUGGCCUGGAGAGGGCCAGUGCUGCCACUGGUGUGGGGGUCAUUCUUGUGCACCCCCUACUGUGUGCUCCUCUUGGAAUUCUCGGGUGCCAA: 0.369
